Measurements pooled from the literature.
Parts stem from different laboratories: compare values within a part only.

Series 1
Target: Sal-like protein 4, full length isoform B (SALL4, Homo sapiens, UniProt Q9UJQ4-2, residues 1-616)
Method: universal PBM
Form: double-stranded DNA, one strand shown
Medium: in vitro
Concentration: not given
Setting: 8-mer, flanks averaged, mean of replicates
Reading: higher = stronger binding
Oligonucleotide | E-score
CCCAGGCA | -0.191
TAAGAAAA | 0.189
GGATCGCC | -0.29
AGGAAAAT | 0.156
ATGCAAAG | 0.122
ACAGCGAT | -0.169
CAATACTA | 0.191
GTTCTGTA | 0.0358
GCAATACA | 0.146
TCGCCAGA | -0.11
ATGTAGTG | 0.135
ATTTGGAA | 0.226
GAAAGCTA | -0.0536
CGCCCTGA | -0.174
CAATAGCG | -0.166
GTGCATTA | 0.23
ATCGAGTA | -0.0727
AGACCGGA | -0.277
GCCGTCCA | -0.159
CCACCCAA | -0.0951
CCAAATTC | 0.0192

Series 2
Target: Myc proto-oncogene protein, bHLH-zipper, MAX partner unstated (MYC, Homo sapiens, UniProt P01106, residues 368-449)
Sequence of UniProt P01106 (368-449, looked up): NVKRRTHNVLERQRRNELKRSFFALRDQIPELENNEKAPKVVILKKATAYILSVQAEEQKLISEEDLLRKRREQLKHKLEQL
Method: protein-binding microarray
Form: double-stranded DNA, one strand shown
Medium: in vitro
Concentration: not given
Setting: k-mer, scored over probes, only values ≥0.25
Reading: higher = stronger binding
Oligonucleotide | E-score
AACTCGTG | 0.382
ATGGCCGC | 0.305
AACGTGGG | 0.383
CCCACACC | 0.307
CCATGCGG | 0.479
CGCACGCG | 0.456
CATGTATC | 0.301
GACCATGC | 0.458
AAGCCATG | 0.336
GAACGCAC | 0.291
CCGGCACG | 0.372
ATGGGGCA | 0.278
CTGCGTGC | 0.307
CATGGCCC | 0.416
ATGCGTGA | 0.318
ACCCCGCC | 0.384
GGGGAGGA | 0.262
CGTGCCAA | 0.323
CCCACGGG | 0.27
AAGCGCGC | 0.258

Series 3
Target: RNA binding protein fox-1 homolog 2, RRM domain, GST-SBP tag (RBFOX2, Homo sapiens, UniProt O43251-10, residues 100-194)
Method: RNA Bind-n-Seq
Form: RNA
Medium: in vitro
Concentration: 365 nM
Setting: natural RNA segment, single round, ends assumed
Reference: no-protein control
Reading: higher = stronger binding
All sequences stand within: GGGAGUUCUACAGUCCGACGAUC … UGGAAUUCUCGGGUGCCAA
Residues (chain): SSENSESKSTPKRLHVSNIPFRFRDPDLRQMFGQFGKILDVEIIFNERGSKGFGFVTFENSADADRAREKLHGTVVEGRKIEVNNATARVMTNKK
Oligonucleotide | RBNS enrichment (R)
AAACCUGAACUUUCAUUGGAUUUUUGUUAAUUUUCCUCAUUUUGAAUUAUGUGCACUACCAUAGCUACAUCAGUUUGAUACAGUAUUGAAAAAUUAUCAGUUAUAUUUUG | 0.514
GACCAUAAAGCAGACUUUAGUAACUUUCUAUUUCUGUAAGUACUAAAUGUCUGGCAUUUUAAACUUUUGUAGAAUACAUUAUGUUGGACACUGGAAUAAUACUAUUUAUU | 0.685
CACACUCUAAGUUCUAUUGAACCUAGGACUUGAGCCUCCAUUUCUGGCUUCUAGUCUGGUGUUCUGAGUACUUGAUUUCAGGUCAAUAACGGUCCCCCCUCACUCCACAC | 0.246
AGAAGUCUGGGAAGCCCCUUUCGCUCUGCCUCCUGCAUCCUCCCAGAUAACAAAACACAUUAACACAUUCUUACUGGAUAAUCCAAUUUGCCAAAACAUUUGGGCAUUGU | 0.694
UGUGAAGGGAUUUGUUUUGUCAAAAAAUUAAAAACUCAAUGUGUAUGACGCCACUCUGAAGAGUAGGUGAGCGCUUUGCAGUCACAGAAGGUGGCAUCUGACUGCGGCUC | 0.918
CAGGUUGUUGACAGUUCCUGGUUGACCCACAGCUACCCAUGUCAGUUAUCUCCACUAACAUAUCCAAGAAUCUUUGUAGGACAAUUUCUCCACCUGCAAGGUCUUUCAGG | 0.634
UUUUCUGGUUGUUAUAUAGAUGCCAAAAUAGCACUUUGAUAUUUGCAAAGUGCUUUAUGCUUUUUAAUAAUUGUUAGCUGUUUCUCACAUCAUUGUGAGUUAGAUCAGUA | 0.355
UUCAAUACACUUUAGGUAGCCGAUUAUCUGAUUUAAGUGCAGACACACUUUUCUCACAUUGAGUUGUAUGCAGAAUGUAGCUUCAGAUGUAUUCAUUAUAGUUACAAUAU | 0.684
GUCCUCUGUGCGCACAGUAGGCCUUUGCUUUACCAUUCAACAGUUCUGACUUAGGCAUGUGUAGAUGGGUCCUUAGAUUCGUCCCGAGGAAGAGACUGCAAAGACACAUG | 0.376
AAAUAAAAAAAAAAAGGAAAAAAAAACCUUAUAGAAGUUAGCAUUAUGCUAAAAUCCCAGAUGUUGUAGGACUGUACUUCUGUAGAGUUUAGACUGAGCAUCGAUCCCGU | 0.972
UACUCUUAACUGUUUAUGCAAAUUGUAUAAGGUUUCUUAUGCCCAAGCUUGAAAAAUGAUUUCCCAGUAGACAAGAGGCCCCCACCCAUCCUCCAAUUGUGUUUAUUUAC | 0.931
UCCUAGCAUUUCUAUAUUAUCUGUCCAUUCUGAGGAACCAGUGAAUGUCCUAUAAAUGCACCUCCUGUCAAAACCAUGCCUGAGAGGUCCCGGCUGGGAGUGACAGGGUG | 2.26

Series 4
Target: Interferon regulatory factor 5, full length, phosphomimetic (IRF5, Homo sapiens, UniProt Q13568-2, residues 1-514, S451D/S453D/S456D/S462D)
Method: protein-binding microarray
Form: double-stranded DNA, one strand shown
Medium: in vitro
Concentration: 940 nM top
Setting: 60-bp whole probe
Added: salmon DNA 0.4 mg/ml
Reference: random background probes
Reading: higher = stronger binding
All sequences stand within: GCCTAGCAC … GTCTTGATTCGCTTGACGCTGCTG
Oligonucleotide | fitted relative affinity [z-score]
CCACATCTCTGTCCGTGCTCGTGCTAG | 0.708
CATGAATCAGGCATAGCATGGTGCTAG | -0.726
TTCATTTACATTTCCAATACGTGCTAG | 1.32
TGAGGTATCGGTTTCGGTTAGTGCTAG | 11.2
TTAGGTCTCCTTCTCCATTAGTGCTAG | 0.565
GGGAAAATGGCTTTGCAGATGTGCTAG | -0.456
TCATTTTTCCTAATTGAACTGTGCTAG | 0.73
TTAGGACTACTACTGCTTTAGTGCTAG | -0.0308
TCAACTCTGCCTCTAACACTGTGCTAG | 0.571
ACTTTTTTTAATTGAGAAGCGTGCTAG | 0.5
AATTTTTTTTCTAACTAAAAGTGCTAG | 0.226
TTAGGACTGGACTTCCGGTTAGTGCTA | -0.0886
GACGATTTCGCGACTGGAGACGTGCTA | -0.0652
GACGAATTACCTCTGGAGCAGTGCTAG | -0.918
ATAGGACTGGGACTGGGTTAGTGCTAG | -0.372
GACGATATCGGGAATCGAGACGTGCTA | 0.152
TCACAGCTGTTTTTCTCACTGTGCTAG | 0.467
GACGATTTCAGTTTGGAGACGTGCTAG | 0.452
GTCTCTTGTTCTCTCTGGCCGTGCTAG | 1.49
TCAGTTTTCTCTCCCATACTGTGCTAG | 1.81
TCATCAATCATTTTAGTACTGTGCTAG | 0.523
TCACATGTTGCTCTCCGACTGTGCTAG | 0.312
TTAGGTTTCGGTTTCGTTTAGTGCTAG | 15.9
TTAGGACTGGACACTGGTTTAGTGCTA | -0.429

Series 5
Target: Histone acetyltransferase KAT6A, both winged helices, GST fusion (KAT6A, Homo sapiens, UniProt Q92794, residues 1-181)
Method: protein binding microarray
Form: double-stranded DNA, one strand shown
Medium: in vitro
Concentration: not given
Setting: 8-mer, flanks averaged, mean of 2 arrays, mostly near background
Reference: not given
Reading: higher = stronger binding
Target sequence (chain): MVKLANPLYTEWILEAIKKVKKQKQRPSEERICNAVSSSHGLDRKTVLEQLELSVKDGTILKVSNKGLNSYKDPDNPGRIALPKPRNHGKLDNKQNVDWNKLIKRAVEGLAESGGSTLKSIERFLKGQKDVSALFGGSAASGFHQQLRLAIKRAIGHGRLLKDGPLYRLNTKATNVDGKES
Oligonucleotide | E-score
GTAACTCA | -0.166
CCGCCAAC | 0.149
GAAGCCCA | -0.119
AGCCCGCC | 0.191
CGTTTGTC | 0.116
CACAGCCG | 0.246
AACACTTC | -0.163
TACCCCGA | 0.159
AGAGTTTG | -0.136
ACGGCTCT | 0.217
AATATGTA | -0.0583
CTTCAGCC | -0.209
CTTATCCC | -0.0308
CCATGATC | -0.128
AAAAGCAT | -0.123
CCCAGAAG | -0.165
AGAGTGGC | -0.117
GACGTATC | 0.0764
CAGCCATC | -0.0882
AGCCCAAT | -0.244
CGCCAGAG | 0.00359
ATCGGTGA | -0.0641
CGTATGCC | 0.1
GTTATATA | -0.0662
CTCCGTCA | 0.0173

Series 6
Target: Phosphate system positive regulatory protein PHO4, full length, GST-tagged (PHO4, Saccharomyces cerevisiae, UniProt P07270, residues 1-312)
Method: competition protein-binding microarray
Form: double-stranded DNA, one strand shown
Medium: in vitro
Concentration: 2 µM
Setting: whole 60-bp probe, lowest competitor level
Added: Cbf1 competitor, 0.05 µM
Reading: higher = stronger binding
All sequences stand within: … GTCTTGATTCGCTTGACGCTGCTG
Residues (chain): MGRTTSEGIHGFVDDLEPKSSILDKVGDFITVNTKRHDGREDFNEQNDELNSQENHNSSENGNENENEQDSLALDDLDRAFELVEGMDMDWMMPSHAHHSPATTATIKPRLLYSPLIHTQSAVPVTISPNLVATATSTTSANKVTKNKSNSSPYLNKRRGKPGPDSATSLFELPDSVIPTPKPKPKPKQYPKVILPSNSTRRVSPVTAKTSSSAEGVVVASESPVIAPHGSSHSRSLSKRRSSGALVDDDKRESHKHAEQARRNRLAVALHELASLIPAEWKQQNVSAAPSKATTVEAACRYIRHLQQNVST
Oligonucleotide | fluorescence intensity [a.u.]
CTTTCCCGATCTTGTTGGGTGGGTGTAGCACATTTG | 4640
TATTTAATGCGACAGGTGGAAATCAGGACTATGCAG | 5360
CGGGGTTAAGTTTGTCACGCAACTTGCTTGCAGCAG | 5210
CACACCGCGAGAAACATCGTGGAAGATTACGGAGCT | 7490
GAACAGTGCCTGCACCTCGTGTATCGCGATGCGGAG | 10700
ACAGCGAGGCCATTGCACGTGCAAATAAATTGAATC | 18800
CTAGCCCATAAAATGGTCGTGCGGATTAACGAGCAA | 6450
GTCTTGTCTCATTGTCACATGACTTTCCCCACTTCA | 6240
CTTTCCCGATCTTGTAAAGTGGGTGTAGCACATTTG | 4370
CTTCTGTAAATTTGTCACCCTACTTGACGCGCCCCG | 4170
CGTCCTAGTGATTGTCACGGGACTTCCATGAGGAAG | 5490
ACTGGAAACGAGCAACACATGTCCCACTTTGCCACA | 10700
GATTCAGATCTGAGACTTGGGTAGCATTTGACAGAC | 3510
GCTAATCGGCTATTTGACATGATGTCTTCCTTTCCT | 5120
AAATTACTAAGTTGACATGTGGGTGACGCCGTATGA | 10400
CATACCCAACCTTGTCACGACACTTAAGATATTTGT | 5240
CATACCCAACCTTGTCACGGTACTTAAGATATTTGT | 4710

Repeated from above (series 2):
Oligonucleotide | E-score
GAACGCAC | 0.291
ATGCGTGA | 0.318
CCGGCACG | 0.372
CTGCGTGC | 0.307
AACTCGTG | 0.382
CATGTATC | 0.301
AACGTGGG | 0.383
CGTGCCAA | 0.323
ATGGCCGC | 0.305
GACCATGC | 0.458
CGCACGCG | 0.456
